Measured values pooled from the literature.
Every numbered part comes from another study and shows a few of its results, in no order. Changes are numbered by the printed parent chain.

Sample 1
Target: CEBPA, bZIP domain (human)
Technique: DHFR protein complementation
Sample: yeast
Setting: single substitutions, most at no-binding floor
Baseline: wild-type JUN-FOS pair
Direction: higher = stronger binding
Starting sequence: JUN, bZIP domain (human); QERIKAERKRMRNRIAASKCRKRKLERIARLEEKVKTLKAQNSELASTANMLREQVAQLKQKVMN; partner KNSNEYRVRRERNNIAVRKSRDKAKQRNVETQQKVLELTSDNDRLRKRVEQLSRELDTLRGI
`E44T` gave a binding fitness of -1.41 natural log.
The binding fitness of `S47V` is reported as -1.37 natural log.
For `R53P`, the binding fitness was -1.52 natural log.
With `S47C` the binding fitness was -1.42 natural log.
With `K36W` the binding fitness was -1.48 natural log.
`A29Y` has a binding fitness of -1.44 natural log.
With `A57T` the binding fitness was -1.51 natural log.
`A29N` has a binding fitness of -1.38 natural log.
The binding fitness of `A29C` is reported as -1.47 natural log.
With `A29E` the binding fitness was -1.25 natural log.
With `K36P` the binding fitness was -1.53 natural log.
For `T37V`, the binding fitness was -1.45 natural log.
The binding fitness of `R53Y` is reported as -1.4 natural log.
`L31I` has a binding fitness of -1.41 natural log.
For `A40E`, the binding fitness was -1.34 natural log.
For `L52M`, the binding fitness was -1.33 natural log.
The binding fitness of `R53I` is reported as -1.36 natural log.
With `S43F` the binding fitness was -1.38 natural log.
`A40Y` gave a binding fitness of -1.37 natural log.

Sample 2
Target: CCNE1, cyclin fold, Cln2 fusion (human)
Technique: yeast growth competition, sequencing
Sample: yeast
Setting: strong parent motif
Baseline: not given
Direction: higher = stronger binding
Starting sequence: E2F1 docking peptide (human); PPVKRRLDFETDH
`L7P` — result for “normalised enrichment score”: -0.0551.
`P2E`: “normalised enrichment score” 5.02.
Under “normalised enrichment score”, `L7A` is recorded as 0.599.
For `F9G`, “normalised enrichment score” read -0.0763.
For `E10D`, “normalised enrichment score” read 6.34.
Under “normalised enrichment score”, `R5H` is recorded as 0.125.
`D12Q`: “normalised enrichment score” 6.62.
`D8C`: “normalised enrichment score” 6.2.
`E10K` — result for “normalised enrichment score”: 5.97.
Under “normalised enrichment score”, `D12W` is recorded as 6.54.
For `T11V`, “normalised enrichment score” read 6.01.
`V3F`: “normalised enrichment score” 4.5.
For `T11M`, “normalised enrichment score” read 6.44.
Under “normalised enrichment score”, `E10P` is recorded as 6.2.
Under “normalised enrichment score”, `T11Y` is recorded as 6.31.
For `D8H`, “normalised enrichment score” read 6.26.
For `R5Q`, “normalised enrichment score” read 0.586.
`E10R`: “normalised enrichment score” 6.13.
Under “normalised enrichment score”, `K4Q` is recorded as 4.43.
`T11I`: “normalised enrichment score” 6.18.
`V3G`: “normalised enrichment score” 3.07.
Under “normalised enrichment score”, `L7S` is recorded as 0.239.
`K4T`: “normalised enrichment score” 3.72.

Sample 3
Target: Sal-like protein 4, full length isoform A (SALL4, Homo sapiens, UniProt Q9UJQ4, residues 1-1053)
Chain of UniProt Q9UJQ4 (whole entry, looked up): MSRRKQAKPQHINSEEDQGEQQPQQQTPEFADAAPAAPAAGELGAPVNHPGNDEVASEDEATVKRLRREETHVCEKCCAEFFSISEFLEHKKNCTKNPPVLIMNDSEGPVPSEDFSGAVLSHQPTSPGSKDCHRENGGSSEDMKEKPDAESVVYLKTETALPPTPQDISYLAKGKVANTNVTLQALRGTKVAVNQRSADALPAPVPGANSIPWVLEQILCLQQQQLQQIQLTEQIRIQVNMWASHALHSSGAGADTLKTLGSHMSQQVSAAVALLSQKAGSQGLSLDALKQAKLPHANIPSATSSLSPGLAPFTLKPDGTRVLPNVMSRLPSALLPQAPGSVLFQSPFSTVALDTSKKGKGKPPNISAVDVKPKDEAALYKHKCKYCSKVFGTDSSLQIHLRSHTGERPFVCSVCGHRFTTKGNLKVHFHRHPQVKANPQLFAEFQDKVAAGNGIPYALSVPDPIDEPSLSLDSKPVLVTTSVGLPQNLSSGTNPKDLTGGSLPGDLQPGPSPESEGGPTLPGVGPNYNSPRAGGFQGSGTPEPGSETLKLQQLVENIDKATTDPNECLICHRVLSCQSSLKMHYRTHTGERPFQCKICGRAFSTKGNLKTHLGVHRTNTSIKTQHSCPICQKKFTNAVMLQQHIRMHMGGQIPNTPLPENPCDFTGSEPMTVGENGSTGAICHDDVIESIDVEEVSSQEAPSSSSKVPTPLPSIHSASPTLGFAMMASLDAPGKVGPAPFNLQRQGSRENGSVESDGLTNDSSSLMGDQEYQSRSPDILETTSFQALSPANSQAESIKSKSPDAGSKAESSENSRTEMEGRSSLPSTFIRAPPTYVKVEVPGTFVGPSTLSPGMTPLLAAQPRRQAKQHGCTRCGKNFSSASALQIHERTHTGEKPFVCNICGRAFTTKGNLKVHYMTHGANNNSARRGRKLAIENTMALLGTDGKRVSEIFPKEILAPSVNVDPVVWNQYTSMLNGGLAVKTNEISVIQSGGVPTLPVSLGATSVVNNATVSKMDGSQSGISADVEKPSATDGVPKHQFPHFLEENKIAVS
Technique: universal PBM
Molecule type: double-stranded DNA, one strand shown
Sample: in vitro
Tested at: 600 nM
Setting: 8-mer, flanks averaged, mean of replicates
Direction: higher = stronger binding
The E-score of `CAACAGTA` is reported as -0.0363.
For `AGCGAACA`, the E-score was -0.0401.
For `AAGTAACT`, the E-score was 0.138.
With `CCTAGACG` the E-score was -0.246.
For `GCCTCAAC`, the E-score was -0.0202.
With `AAGATAGT` the E-score was 0.174.
`TCTGGGAA` gave an E-score of -0.0744.
`CCATCTAA` has an E-score of 0.00133.
`AAGGCACC` gave an E-score of -0.224.
With `GTTGAATA` the E-score was 0.321.
The E-score of `ACGCTGAA` is reported as -0.0752.
`TACCTCCA` has an E-score of 3.5e-05.
`GAATAGTA` gave an E-score of 0.278.
For `CCCCTTCG`, the E-score was -0.31.
For `ACTCGCTA`, the E-score was -0.171.
`GCAACGGC` has an E-score of -0.126.
`GCGACGCC` gave an E-score of -0.361.
For `GGCAGAAA`, the E-score was 0.0619.
The E-score of `AGATCACG` is reported as -0.0796.
`AAGGTTCC` has an E-score of 0.0315.
`GGCAAGCC` has an E-score of -0.279.
`AATCTCTC` has an E-score of 0.0899.
`ACTCGTAC` has an E-score of -0.0294.
`CGCCGGTA` has an E-score of -0.288.

Sample 4
Target: ABI1, truncated, D143A, DHFR fusion (Arabidopsis thaliana)
Technique: DHFR PCA, deep sequencing
Sample: yeast
Setting: methotrexate growth selection, single substitutions
Added: (+)-ABA 0.11 µM
Baseline: wild-type fitted maximum
Direction: higher = stronger binding
Starting sequence: PYL1, truncated, DHFR fusion (Arabidopsis thaliana); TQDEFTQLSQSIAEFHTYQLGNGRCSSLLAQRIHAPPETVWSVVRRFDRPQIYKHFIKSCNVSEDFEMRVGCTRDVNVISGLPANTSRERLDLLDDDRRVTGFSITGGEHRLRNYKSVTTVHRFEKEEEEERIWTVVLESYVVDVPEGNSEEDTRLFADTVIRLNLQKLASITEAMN
`R69M` — result for “relative binding score”: 16.6%.
`R46I`: “relative binding score” -11.6%.
For `K126I`, “relative binding score” read 28.9%.
`I172K` — result for “relative binding score”: 4.64%.
Under “relative binding score”, `R98K` is recorded as 37.5%.
For `I12T`, “relative binding score” read -5.43%.
Under “relative binding score”, `T17W` is recorded as -5.1%.
For `V40S`, “relative binding score” read -3.3%.
Under “relative binding score”, `N85K` is recorded as 54.1%.
`E152K` — result for “relative binding score”: 8.86%.
`E67V` — result for “relative binding score”: 45.5%.
`E152P`: “relative binding score” -15.4%.
For `S171A`, “relative binding score” read 52.5%.
`Q31P`: “relative binding score” 0.775%.
`E89D`: “relative binding score” -1.8%.
For `V121P`, “relative binding score” read -5.83%.
Under “relative binding score”, `N114A` is recorded as 4.09%.
`S59D` — result for “relative binding score”: 33.6%.
Under “relative binding score”, `H55E` is recorded as 27.7%.
For `Y115I`, “relative binding score” read 4.32%.
`Q7M`: “relative binding score” 29.6%.

Sample 5
Target: Histone acetyltransferase KAT6A, both winged helices, GST fusion (KAT6A, Homo sapiens, UniProt Q92794, residues 1-181)
Technique: protein binding microarray
Molecule type: double-stranded DNA, one strand shown
Sample: in vitro
Tested at: not given
Setting: 8-mer, flanks averaged, mean of 2 arrays, mostly near background
Baseline: not given
Direction: higher = stronger binding
Residues (chain): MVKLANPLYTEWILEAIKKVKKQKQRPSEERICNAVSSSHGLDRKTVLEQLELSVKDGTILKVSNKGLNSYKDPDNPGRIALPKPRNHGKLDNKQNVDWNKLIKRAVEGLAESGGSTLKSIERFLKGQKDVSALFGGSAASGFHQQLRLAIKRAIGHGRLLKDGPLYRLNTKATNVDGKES
With `AAAGTCGC` the E-score was 0.0358.
`ATATAAGC` has an E-score of -0.0321.
`TACGGGCA` gave an E-score of 0.306.
The E-score of `ATGCATCA` is reported as -0.0694.
With `TCATAGCA` the E-score was -0.173.
The E-score of `AGAATTAA` is reported as -0.153.
The E-score of `CCCTGAAC` is reported as -0.0402.
The E-score of `GCGGCGTA` is reported as 0.306.
`AAGCACGT` gave an E-score of -0.0666.
The E-score of `ACTTTATG` is reported as -0.245.
`ACGCCATC` has an E-score of 0.0629.
`TAGTAACA` has an E-score of -0.0937.
`CTTTAAAC` gave an E-score of -0.209.
`ATATCATC` gave an E-score of 0.0476.
`AAACTAGG` has an E-score of -0.161.
For `ACAGCGTG`, the E-score was 0.196.
The E-score of `TCAAGTGA` is reported as -0.21.
`CCTCCGCA` has an E-score of -0.0484.
The E-score of `AACTTTTG` is reported as 0.00534.
`AAGTACCA` has an E-score of -0.0857.
The E-score of `GCTGGGCC` is reported as -0.0284.
`CCGACTCA` has an E-score of 0.0213.

Repeated from above (sample 3):
`GAATAGTA` gave an E-score of 0.278.
For `CCCCTTCG`, the E-score was -0.31.
For `ACTCGCTA`, the E-score was -0.171.
`GCAACGGC` has an E-score of -0.126.
`GCGACGCC` gave an E-score of -0.361.
For `GGCAGAAA`, the E-score was 0.0619.
The E-score of `AGATCACG` is reported as -0.0796.
